Assay results pooled from the literature.
“And” joins repeats or separate records; there may be more than shown. Numbers after ± are the reported error.
CTSL: Procathepsin L (CTSL, Homo sapiens, UniProt P07711)
UniProt P07711, sequence (whole entry, looked up): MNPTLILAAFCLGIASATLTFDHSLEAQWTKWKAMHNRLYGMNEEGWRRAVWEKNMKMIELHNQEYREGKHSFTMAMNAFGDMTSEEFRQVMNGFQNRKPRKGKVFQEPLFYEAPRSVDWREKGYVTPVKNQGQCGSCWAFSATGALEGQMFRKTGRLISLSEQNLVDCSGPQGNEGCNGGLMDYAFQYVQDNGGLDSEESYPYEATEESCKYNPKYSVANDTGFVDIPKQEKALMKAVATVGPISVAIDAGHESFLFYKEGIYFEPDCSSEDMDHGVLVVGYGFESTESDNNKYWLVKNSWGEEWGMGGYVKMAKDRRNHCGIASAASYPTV
HDAC1: Histone deacetylase 1 (HDAC1, Homo sapiens, UniProt Q13547)
UniProt Q13547, sequence (whole entry, looked up): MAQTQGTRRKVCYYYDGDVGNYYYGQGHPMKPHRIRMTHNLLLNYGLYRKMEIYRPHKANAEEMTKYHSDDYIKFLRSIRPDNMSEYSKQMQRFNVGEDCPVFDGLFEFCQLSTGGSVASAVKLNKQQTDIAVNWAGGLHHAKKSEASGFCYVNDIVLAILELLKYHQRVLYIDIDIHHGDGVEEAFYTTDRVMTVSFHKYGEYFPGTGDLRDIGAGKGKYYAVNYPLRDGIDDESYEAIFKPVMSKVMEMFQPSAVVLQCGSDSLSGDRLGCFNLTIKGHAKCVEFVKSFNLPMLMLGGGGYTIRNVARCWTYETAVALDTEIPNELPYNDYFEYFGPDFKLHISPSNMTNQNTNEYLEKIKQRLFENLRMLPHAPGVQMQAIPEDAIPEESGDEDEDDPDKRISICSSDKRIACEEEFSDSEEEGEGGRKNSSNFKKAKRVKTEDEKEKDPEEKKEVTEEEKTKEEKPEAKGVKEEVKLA
PTPRC: Receptor-type tyrosine-protein phosphatase C (PTPRC, Homo sapiens, UniProt P08575)
UniProt P08575, sequence (whole entry, looked up): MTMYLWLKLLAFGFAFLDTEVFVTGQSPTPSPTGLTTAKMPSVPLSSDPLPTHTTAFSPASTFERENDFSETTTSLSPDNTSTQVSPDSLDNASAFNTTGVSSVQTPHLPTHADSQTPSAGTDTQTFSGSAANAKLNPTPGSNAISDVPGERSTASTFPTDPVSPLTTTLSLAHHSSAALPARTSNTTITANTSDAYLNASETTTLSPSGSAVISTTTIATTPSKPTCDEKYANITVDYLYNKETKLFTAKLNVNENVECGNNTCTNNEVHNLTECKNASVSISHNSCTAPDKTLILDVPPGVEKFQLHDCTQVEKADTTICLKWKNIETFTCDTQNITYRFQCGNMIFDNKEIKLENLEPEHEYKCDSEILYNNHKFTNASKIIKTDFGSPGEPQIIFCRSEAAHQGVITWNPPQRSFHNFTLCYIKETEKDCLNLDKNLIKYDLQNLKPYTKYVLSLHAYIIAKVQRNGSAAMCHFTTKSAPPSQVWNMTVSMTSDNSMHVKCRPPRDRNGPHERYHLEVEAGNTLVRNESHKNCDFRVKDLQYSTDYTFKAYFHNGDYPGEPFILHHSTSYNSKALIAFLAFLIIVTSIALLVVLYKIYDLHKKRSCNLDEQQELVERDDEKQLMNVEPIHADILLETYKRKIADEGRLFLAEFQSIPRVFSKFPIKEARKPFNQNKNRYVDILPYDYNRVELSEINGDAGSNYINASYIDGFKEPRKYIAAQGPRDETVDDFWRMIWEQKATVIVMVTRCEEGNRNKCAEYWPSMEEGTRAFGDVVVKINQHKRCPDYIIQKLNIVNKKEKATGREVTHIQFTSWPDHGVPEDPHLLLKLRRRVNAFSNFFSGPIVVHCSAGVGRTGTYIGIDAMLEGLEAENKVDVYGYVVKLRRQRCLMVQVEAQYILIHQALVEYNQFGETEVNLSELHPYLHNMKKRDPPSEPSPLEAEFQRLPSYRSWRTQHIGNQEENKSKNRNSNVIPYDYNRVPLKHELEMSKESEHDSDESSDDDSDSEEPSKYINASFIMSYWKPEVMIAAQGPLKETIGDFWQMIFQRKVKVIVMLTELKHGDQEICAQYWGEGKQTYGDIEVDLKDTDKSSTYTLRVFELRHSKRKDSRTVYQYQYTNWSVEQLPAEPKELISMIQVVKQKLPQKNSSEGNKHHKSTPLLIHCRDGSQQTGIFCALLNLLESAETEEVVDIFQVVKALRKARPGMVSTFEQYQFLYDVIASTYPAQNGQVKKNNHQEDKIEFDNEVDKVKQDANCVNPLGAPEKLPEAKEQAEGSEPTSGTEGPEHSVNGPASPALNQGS
PKN3: Serine/threonine-protein kinase N3 (PKN3, Homo sapiens, UniProt Q6P5Z2)
UniProt Q6P5Z2, sequence (whole entry, looked up): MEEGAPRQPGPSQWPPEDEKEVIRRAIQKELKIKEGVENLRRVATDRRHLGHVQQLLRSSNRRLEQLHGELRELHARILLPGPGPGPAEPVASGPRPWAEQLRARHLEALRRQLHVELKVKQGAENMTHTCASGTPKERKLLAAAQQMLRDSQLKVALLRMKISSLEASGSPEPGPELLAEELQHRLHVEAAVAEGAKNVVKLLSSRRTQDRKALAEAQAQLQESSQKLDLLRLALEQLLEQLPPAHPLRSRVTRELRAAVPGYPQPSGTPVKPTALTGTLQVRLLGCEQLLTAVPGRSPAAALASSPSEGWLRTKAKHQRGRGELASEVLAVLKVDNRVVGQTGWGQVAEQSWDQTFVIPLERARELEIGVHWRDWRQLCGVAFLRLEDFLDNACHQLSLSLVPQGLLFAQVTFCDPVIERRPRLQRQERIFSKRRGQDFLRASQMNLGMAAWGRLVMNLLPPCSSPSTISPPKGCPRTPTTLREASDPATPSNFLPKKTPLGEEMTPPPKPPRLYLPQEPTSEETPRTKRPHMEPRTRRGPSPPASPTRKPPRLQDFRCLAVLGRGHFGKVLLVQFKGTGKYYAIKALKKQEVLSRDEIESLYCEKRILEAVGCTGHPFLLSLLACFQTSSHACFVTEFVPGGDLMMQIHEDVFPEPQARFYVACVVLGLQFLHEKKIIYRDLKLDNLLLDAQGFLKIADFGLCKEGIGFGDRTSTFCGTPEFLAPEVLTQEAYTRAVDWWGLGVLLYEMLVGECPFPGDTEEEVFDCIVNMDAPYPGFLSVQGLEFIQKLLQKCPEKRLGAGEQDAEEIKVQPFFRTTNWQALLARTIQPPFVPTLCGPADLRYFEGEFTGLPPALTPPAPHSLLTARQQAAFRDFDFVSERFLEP
Grin1: Glutamate receptor ionotropic, NMDA 1 (Grin1, Rattus norvegicus, UniProt P35439)
PI4KA: Phosphatidylinositol 4-kinase alpha (PI4KA, Homo sapiens, UniProt P42356)
UniProt Q9NR20, sequence (whole entry, looked up): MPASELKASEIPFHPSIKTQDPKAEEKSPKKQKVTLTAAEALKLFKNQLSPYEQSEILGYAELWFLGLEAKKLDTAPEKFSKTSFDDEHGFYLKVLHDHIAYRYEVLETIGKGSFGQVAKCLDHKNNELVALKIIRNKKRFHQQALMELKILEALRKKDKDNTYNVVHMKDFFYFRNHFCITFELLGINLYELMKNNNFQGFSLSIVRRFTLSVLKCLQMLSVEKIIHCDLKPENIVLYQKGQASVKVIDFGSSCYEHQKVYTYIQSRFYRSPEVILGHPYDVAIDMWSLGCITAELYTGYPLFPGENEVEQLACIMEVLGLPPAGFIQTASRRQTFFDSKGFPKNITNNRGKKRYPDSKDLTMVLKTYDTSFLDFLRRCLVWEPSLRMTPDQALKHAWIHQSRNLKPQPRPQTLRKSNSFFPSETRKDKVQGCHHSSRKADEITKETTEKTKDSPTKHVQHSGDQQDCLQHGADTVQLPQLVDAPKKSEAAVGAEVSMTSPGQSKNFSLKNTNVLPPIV
UniProt P28335, sequence (whole entry, looked up): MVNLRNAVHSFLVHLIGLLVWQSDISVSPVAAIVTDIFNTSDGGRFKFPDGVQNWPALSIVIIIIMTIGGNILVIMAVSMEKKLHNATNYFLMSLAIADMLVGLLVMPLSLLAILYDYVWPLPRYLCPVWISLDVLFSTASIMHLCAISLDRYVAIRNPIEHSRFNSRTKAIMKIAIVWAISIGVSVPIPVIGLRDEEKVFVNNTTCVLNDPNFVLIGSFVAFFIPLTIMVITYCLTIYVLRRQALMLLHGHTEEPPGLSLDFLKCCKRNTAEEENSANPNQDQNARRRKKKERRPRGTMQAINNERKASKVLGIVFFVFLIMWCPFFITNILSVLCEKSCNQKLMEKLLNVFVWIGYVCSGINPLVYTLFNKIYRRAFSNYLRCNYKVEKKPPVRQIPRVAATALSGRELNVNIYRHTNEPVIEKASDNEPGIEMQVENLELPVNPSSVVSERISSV
UniProt Q8N6T7, sequence (whole entry, looked up): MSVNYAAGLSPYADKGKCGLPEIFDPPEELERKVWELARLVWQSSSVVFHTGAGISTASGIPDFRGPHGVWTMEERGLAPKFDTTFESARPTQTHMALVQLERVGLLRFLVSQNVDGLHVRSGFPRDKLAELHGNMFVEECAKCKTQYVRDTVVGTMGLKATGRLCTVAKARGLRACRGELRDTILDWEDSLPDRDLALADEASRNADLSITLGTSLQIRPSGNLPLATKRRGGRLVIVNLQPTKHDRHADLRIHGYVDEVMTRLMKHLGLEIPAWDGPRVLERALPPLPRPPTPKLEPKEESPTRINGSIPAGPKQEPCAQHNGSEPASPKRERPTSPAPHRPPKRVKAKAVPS
UniProt P17787, sequence (whole entry, looked up): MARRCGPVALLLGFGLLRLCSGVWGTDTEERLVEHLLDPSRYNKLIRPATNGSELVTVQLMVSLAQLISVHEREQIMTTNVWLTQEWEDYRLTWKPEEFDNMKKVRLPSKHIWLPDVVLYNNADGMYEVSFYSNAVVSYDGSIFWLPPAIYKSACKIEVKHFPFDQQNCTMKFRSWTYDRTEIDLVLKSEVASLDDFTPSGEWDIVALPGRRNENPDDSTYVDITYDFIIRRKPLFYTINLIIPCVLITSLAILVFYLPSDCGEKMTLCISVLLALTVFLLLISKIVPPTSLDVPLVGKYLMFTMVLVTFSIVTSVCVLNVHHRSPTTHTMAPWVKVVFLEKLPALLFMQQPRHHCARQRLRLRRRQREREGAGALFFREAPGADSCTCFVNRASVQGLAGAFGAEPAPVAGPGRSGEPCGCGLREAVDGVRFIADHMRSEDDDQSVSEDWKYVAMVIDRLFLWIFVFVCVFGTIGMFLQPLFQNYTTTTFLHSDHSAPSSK

For `CC(C)C[C@H](NC(=O)[C@H](CCC(N)=O)NC(=O)[C@H](CCCCN)NC(=O)[C@H](CCCNC(=N)N)NC(=O)[C@@H]1CCCN1C(=O)[C@H](C)NC(=O)[C@@H](N)CCCCN)C(=O)N[C@@H](C)C(=O)N[C@H](C(=O)N[C@@H](CCCCN)C(=O)N[C@@H](C)C(=O)N[C@@H](C)C(=O)N[C@@H](CCCNC(=N)N)C(=O)N[C@@H](CCCCN(C)C)C(=O)N[C@@H](CO)C(=O)N[C@@H](C)C(=O)N1CCC[C@H]1C(=O)N[C@@H](C)C(=O)O)[C@@H](C)O`, the inhibition was 85 ± 0.1% (CTSL; enzyme activity, inhibitor; 25 µM, pH 6.0, 25 °C, with: Z-LR-Mca at 0.16 x Km).
With `Cc1ccc(CNC(=O)[C@H](CCc2ccccc2)NC(=O)[C@H](CC(=O)NCC(C)(C)C)NC(=O)c2ccc(OCc3ccccc3)cc2)cc1` the inhibition was 3% (CTSL; enzyme activity, inhibitor; 100 µM).
For `CC(C)(C)c1cccc(OS(=O)(=O)Oc2cc(F)cc(C(=O)NO)c2)c1`, the inhibition was 11% (HDAC1; enzyme activity, inhibitor, fluorescence; 5 µM).
`COc1ncc2nc(C)n(Cc3ncc(S(N)(=O)=O)cc3F)c2c1-c1ccccc1` gave an inhibition of -1.31% (SCN5A (Homo sapiens, UniProt Q14524); antagonist, cell-based; 10 µM).
`COC1CN([C@H]2CC[C@H]([C@@]3(C)Oc4c(Cl)cc(C(=O)NCc5c(SC)cc(C)[nH]c5=O)c(C)c4O3)CC2)C1` — result for “log2 fold change”: 4.32 (RNA-seq, item: TSKU; human, whole blood; dose not given, 24 h; relative to: pretreatment baseline).
`C=CC(=O)Nc1cccc(Cn2ncc3cnc(Nc4cnn(CCOC)c4)nc32)c1` gave a binding of 2.1% (human ABL1-nonphosphorylated; KINOMEscan; 100 nM; relative to: control).
The inhibition of `O=C1c2sc(-c3ccc(N4CCC(CO)CC4)nc3F)nc2CCN1c1cccnc1` is reported as -2% (HTR2C (Homo sapiens, UniProt P28335); ligand displacement, radioligand; 1 µM).
With `Cn1sc(Nc2c(Cl)ccc3ncccc23)c(C#N)c1=O` the inhibition was 1% (NAMPT (Homo sapiens, UniProt P43490); enzyme activity, inhibitor; 10 µM).
For `C/C=C/C(=O)Nc1ccc2nc(NCCCCCN(C)C)nc(NCCCCCCN(C)C)c2c1`, the inhibition was 1% (KMT5A (Homo sapiens, UniProt Q9NQR1); enzyme activity, inhibitor, radiometric; 10 µM).
For `CCn1cc(-c2cccc(C(F)(F)F)c2)c2sc(C(=N)NC3CCS(=O)(=O)CC3)cc2c1=O`, the inhibition was -0.6% (Peregrin (BRPF1, Homo sapiens, UniProt P55201); 1 µM).
With `O=C(Nc1ccc(C(F)F)cc1)[C@H](CC1CCCCC1)Nc1nn2c(=O)ccnc2s1` the inhibition was 6% (PTPRC; enzyme activity, inhibitor; 10 µM).
`Cc1c(COc2cc(OCc3cccc(C#N)c3)c(CNCCO)cc2Cl)cccc1-c1cccc(OCc2ccc(C(=O)NO)cc2)c1` has an inhibition of 20.8% (HDAC1; enzyme activity, inhibitor; 1 µM).
`CC[C@H](C)[C@H](NC(=O)CN1CC=CCCC(=O)N[C@@H](Cc2ccccc2)C(=O)N[C@@H](CCC(=O)O)C1=O)C(=O)N[C@@H](Cc1ccc(O)cc1)C(=O)N[C@@H](CCCNC(=N)N)C(=O)N[C@@H](CC(C)C)C(=O)N[C@@H](CCC(=O)O)C(=O)N[C@@H](CC(C)C)C(=O)N[C@@H](CC(C)C)C(=O)N[C@@H](CCCCN)C(N)=O` gave an inhibition of < 10% (GTPase HRas, with SOS1 catalytic domain (HRAS, Homo sapiens, UniProt P01112); Sos-mediated nucleotide exchange, mant-GDP release; 25 µM, with: Sos 1 µM, GDP 100 µM).
With `CN(Cc1ccc(/C=C/C(=O)NO)cc1)CC12CC3CC(CC(C3)C1)C2` the inhibition was -1% (human 5-HT5a receptor; agonist radioligand binding; 0.05 µM).
`CCC(=O)N(C)c1ccc(Cl)c(Cl)c1` has an inhibition of < 10% (MC4R (Homo sapiens, UniProt P32245); ligand displacement, radioligand; 10 µM).
`C[Si]1(C[C@H](CN)CC(=O)O)CCCC1` has an inhibition of 9% (NMBR (Homo sapiens, UniProt P28336); cell-free assay, inhibitor; 70 µM).
The inhibition of `NC(=O)[C@@H](O)C[C@H]1CCc2sc3ncnc(O[C@H]4CC[C@H](N5CCOCC5)CC4)c3c21` is reported as 35% (PKN3; enzyme activity, inhibitor; 10 µM).
`CC(C)C[C@H](NC(=O)CNC(=O)[C@H](C)NC(=O)[C@H](C)NC(=O)[C@H](CCCNC(=N)N)NC(=O)CNC(=O)CCCCNC(=O)CCCCNC(=O)CCCCNC(=O)[C@H](CCCCN)NC(=O)[C@H](C)NC(=O)[C@@H](N)Cc1c[nH]c2ccccc12)C(=O)N[C@@H](CC(C)C)C(=O)N[C@@H](CO)C(N)=O` has an inhibition of 95% (NPBWR1 (Homo sapiens, UniProt P48145); calcium signal, antagonist; 10 µM).
`CC(C)Cn1c(SCC(=O)N2CCc3ccccc3C2)nc2cc(Cl)ccc2c1=O` gave an inhibition of -6% (CHRM4 (Homo sapiens, UniProt P08173); ligand displacement, radioligand; 10 µM).
`CC[C@H](C)[C@@H]1NC(=O)[C@H](Cc2ccccc2C(F)(F)F)NC(=O)CCSCc2cccc(n2)CSCCCNC(=O)[C@H](CCCCCC(=O)NO)NC1=O` has an inhibition of 30% (HDAC5 (Homo sapiens, UniProt Q9UQL6); enzyme activity, inhibitor, fluorogenic; 30 µM).
For `C[Si](C)(C)C[C@H](CN)CC(=O)O`, the inhibition was -3% (Grin1; ligand displacement, radioligand; 250 µM).
For `C=CC(=O)N1Cc2nc(-c3cc(-c4cc(Cl)cnc4Cl)c(F)cc3F)n(-c3ccncn3)c2C1`, the inhibition was -0.5% (PI4KA; cell-free assay, inhibitor; 1 µM).
The inhibition of `CCCCCCN(O)C(=O)CCCCC[C@@H]1NC(=O)[C@H](CCSC)NC(=O)CCSCc2cccc(n2)CSCCNC(=O)[C@H](Cc2ccc(Cl)cc2Cl)NC1=O` is reported as 30% (HDAC1; enzyme activity, inhibitor, fluorogenic; 30 µM).
The inhibition of `Cn1ccc2cc(-n3c(=O)[nH]c4sc5c(c4c3=O)CCCC5)ccc21` is reported as -13% (PTAFR (Homo sapiens, UniProt P25105); ligand displacement, radioligand; 10 µM).
With `CCCCCCCCCCCCCC(=S)NCCCC[C@H](NS(C)(=O)=O)C(=O)N[C@H](C)C(=O)N[C@@H](CCCNC(=N)N)C(N)=O` the inhibition was 29% (SIRT6 (Homo sapiens, UniProt Q8N6T7); enzyme activity, inhibitor; 10 µM).
With `COc1ccc(S(=O)(=O)N2CCc3ccccc3C2)cc1N1CCN(C(=O)c2ccc(F)cc2C(F)(F)F)CC1` the inhibition was -0.9% (PTPRC; enzyme activity, inhibitor; 1 µM).
The inhibition of `O=C1CO[C@H](CNC(=O)C2(c3ccc(Cl)cc3)CC2)CN1C1Cc2ccccc2C1` is reported as -14% (CCR3 (Homo sapiens, UniProt P51677); β-arrestin recruitment, antagonist; 1 µM).
`Cc1c(COc2cc(OCc3cccc(C#N)c3)c(CN3CCCC[C@H]3C(=O)O)cc2Cl)cccc1-c1cccc(OCCCCCC(=O)NO)c1` has an inhibition of 78% (HDAC1; enzyme activity, inhibitor; 1 µM).
For `O=C1c2sc(-c3ccc(N4CCC(F)C4)nc3F)nc2CCN1c1cccnc1` (stereo not drawn), the inhibition was -4% (Neuronal acetylcholine receptor; alpha4/beta2 (Homo sapiens, UniProt P17787+P43681); ligand displacement, radioligand; 1 µM).
For `CN1CCN(Cc2ccc(-c3ccc(CO[C@H]4CCC[C@@H]4NC(=O)c4cc(-c5cnn(C)c5)cnc4N)cc3)cc2)CC1`, the inhibition was 1% (PI4KA; enzyme activity, inhibitor; 0.1 µM).
`CCn1cc(C(=O)O)c(=O)c2c(N)c(F)c(NC3CCCCC3)cc21` has an inhibition of 0.6% (PKN3; kinase activity; 0.1 µM, with: ATP at Km).
`Cc1c(COc2cc(OCc3cccc(C#N)c3)c(CNC(CO)(CO)CO)cc2Cl)cccc1-c1cccc(OCCCCCCC(=O)NO)c1` gave an inhibition of 76.6% (HDAC1; enzyme activity, inhibitor; 1 µM).
With `CN(C)C/C=C/C(=O)Nc1ccc2nc(NCCCCCN(C)C)nc(NCCCCCCN(C)C)c2c1` the inhibition was 85% (PRMT7 (Homo sapiens, UniProt Q9NVM4); enzyme activity, inhibitor, radiometric; 50 µM).
With `COCC(=O)N1CCc2cc(-c3csc(NC(=O)c4cc(OC)cc(OC)c4)n3)ccc21` the inhibition was -1% (Grin1; radioligand binding, glycine site; 10 µM).
`Cc1c(COc2cc(OCc3cccc(C#N)c3)c(CNC(CO)CO)cc2Cl)cccc1-c1cccc(OCCCCCC(=O)NO)c1` has an inhibition of 57% (HDAC1; enzyme activity, inhibitor; 1 µM).
For `O=C(N1CCCC1)n1ccnn1`, the inhibition was > 95% (Faah (Mus musculus, UniProt O08914); serine hydrolase activity, inhibitor, competitive gel-based ABPP; mouse T-cell proteome; 1 µM, 30 min, 37 °C).
`C[C@@H](O)[C@H](NC(=O)c1ccc(OCc2ccccc2)cc1)C(=O)N[C@@H](CCc1ccccc1)C(=O)NCc1ccccc1Cl` gave an inhibition of 33% (CTSL; enzyme activity, inhibitor; 100 µM).
For `Cc1[nH]nc2c1N=C(c1ccccc1Cl)c1cnc(N3CCOCC3)cc1N2`, the inhibition was 11% (Grin1; 10 µM, rat off-target panel).
The inhibition of `C=CC(=O)Nc1cccc(-c2cnc3[nH]cc(C(=O)NC(C)(C)C)c3n2)c1` is reported as 4% and 3% (DYRK4 (Homo sapiens, UniProt Q9NR20); kinase activity; 0.1 µM).
